Experimental data of several laboratories.
Several values in a cell are separate wells, animals, samples, runs or records. Numbers after ± are the reported error.
CASP7: Caspase-7 (CASP7, Homo sapiens, UniProt P55210)
UniProt Q13148, sequence (whole entry, looked up): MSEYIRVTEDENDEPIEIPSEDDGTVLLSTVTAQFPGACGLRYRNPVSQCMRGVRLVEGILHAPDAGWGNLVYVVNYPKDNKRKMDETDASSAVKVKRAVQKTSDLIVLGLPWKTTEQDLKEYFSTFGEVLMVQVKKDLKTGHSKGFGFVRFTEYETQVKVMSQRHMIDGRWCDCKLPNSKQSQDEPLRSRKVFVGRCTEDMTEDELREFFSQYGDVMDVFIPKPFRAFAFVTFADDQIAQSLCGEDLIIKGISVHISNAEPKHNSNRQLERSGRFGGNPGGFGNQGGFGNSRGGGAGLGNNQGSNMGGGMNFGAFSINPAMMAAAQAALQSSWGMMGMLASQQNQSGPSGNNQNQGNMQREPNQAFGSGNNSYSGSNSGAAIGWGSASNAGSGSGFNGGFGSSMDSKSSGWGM
UniProt P55210, sequence (whole entry, looked up): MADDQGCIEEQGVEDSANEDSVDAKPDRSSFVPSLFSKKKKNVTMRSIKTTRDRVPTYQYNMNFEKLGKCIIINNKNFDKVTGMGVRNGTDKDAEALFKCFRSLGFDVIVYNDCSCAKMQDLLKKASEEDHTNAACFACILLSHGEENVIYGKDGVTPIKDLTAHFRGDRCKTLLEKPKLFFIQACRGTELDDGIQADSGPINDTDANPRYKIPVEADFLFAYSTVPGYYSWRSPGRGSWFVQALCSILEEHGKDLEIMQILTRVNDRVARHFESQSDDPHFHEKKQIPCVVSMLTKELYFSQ
UniProt P07437, sequence (whole entry, looked up): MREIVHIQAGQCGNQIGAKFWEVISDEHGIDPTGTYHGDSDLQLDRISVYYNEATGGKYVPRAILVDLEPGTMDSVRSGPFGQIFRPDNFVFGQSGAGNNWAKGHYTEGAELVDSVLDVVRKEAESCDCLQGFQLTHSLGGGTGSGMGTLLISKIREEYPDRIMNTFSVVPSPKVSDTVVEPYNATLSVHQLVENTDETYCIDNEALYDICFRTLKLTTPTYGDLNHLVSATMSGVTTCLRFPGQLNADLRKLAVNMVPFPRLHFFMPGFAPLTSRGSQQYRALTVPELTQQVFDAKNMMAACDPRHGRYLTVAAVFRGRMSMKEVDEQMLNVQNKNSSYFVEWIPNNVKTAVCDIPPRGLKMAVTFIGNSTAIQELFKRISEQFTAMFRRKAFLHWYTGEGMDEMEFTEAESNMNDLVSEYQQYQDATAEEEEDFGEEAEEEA
UniProt P19491, sequence (whole entry, looked up): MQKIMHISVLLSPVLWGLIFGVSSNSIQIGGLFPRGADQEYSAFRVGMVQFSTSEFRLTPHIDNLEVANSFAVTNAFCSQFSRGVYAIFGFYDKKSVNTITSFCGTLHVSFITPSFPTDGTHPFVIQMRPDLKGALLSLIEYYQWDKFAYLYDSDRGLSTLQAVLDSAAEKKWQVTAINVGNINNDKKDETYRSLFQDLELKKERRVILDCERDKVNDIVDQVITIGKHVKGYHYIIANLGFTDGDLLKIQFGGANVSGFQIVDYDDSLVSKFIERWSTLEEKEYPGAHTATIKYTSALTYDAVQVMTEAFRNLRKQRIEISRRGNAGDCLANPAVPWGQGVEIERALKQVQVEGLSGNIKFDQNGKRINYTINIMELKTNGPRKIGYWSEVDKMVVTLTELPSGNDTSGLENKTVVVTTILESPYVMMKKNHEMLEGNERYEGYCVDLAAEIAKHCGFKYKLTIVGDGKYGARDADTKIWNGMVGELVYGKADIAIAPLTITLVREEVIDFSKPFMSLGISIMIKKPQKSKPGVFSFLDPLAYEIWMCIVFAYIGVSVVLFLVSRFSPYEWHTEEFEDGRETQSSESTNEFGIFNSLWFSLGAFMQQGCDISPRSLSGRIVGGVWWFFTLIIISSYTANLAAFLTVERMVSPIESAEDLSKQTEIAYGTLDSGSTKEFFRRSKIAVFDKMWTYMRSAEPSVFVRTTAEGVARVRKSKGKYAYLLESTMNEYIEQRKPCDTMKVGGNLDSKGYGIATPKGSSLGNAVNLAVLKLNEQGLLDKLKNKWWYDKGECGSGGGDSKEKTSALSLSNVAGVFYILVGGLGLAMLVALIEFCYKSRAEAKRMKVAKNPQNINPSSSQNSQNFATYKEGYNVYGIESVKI
UniProt Q91V12, sequence (whole entry, looked up): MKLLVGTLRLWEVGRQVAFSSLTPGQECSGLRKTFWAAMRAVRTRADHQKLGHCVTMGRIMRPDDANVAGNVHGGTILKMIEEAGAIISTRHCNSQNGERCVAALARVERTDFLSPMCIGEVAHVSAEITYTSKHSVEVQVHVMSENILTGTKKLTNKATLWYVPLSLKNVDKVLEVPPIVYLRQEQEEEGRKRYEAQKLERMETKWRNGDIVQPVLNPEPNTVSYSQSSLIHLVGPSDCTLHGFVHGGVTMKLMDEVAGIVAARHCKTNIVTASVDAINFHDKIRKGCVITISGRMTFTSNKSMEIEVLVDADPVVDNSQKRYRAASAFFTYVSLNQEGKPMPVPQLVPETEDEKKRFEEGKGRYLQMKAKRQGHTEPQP
UniProt Q00987, sequence (whole entry, unmodified, looked up): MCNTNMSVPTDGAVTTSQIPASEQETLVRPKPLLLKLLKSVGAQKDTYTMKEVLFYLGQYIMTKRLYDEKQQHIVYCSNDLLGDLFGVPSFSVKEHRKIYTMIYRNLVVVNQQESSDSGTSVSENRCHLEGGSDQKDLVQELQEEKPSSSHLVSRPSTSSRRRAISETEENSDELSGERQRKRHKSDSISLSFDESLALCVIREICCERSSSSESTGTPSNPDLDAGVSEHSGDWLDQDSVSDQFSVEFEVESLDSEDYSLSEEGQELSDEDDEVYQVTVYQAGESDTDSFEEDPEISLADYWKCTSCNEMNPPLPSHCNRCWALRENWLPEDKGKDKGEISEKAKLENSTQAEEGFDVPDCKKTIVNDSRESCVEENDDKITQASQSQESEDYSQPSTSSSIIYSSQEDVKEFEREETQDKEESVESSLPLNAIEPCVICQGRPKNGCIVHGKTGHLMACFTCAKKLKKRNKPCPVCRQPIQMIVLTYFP
UniProt Q6UB35, sequence (whole entry, looked up): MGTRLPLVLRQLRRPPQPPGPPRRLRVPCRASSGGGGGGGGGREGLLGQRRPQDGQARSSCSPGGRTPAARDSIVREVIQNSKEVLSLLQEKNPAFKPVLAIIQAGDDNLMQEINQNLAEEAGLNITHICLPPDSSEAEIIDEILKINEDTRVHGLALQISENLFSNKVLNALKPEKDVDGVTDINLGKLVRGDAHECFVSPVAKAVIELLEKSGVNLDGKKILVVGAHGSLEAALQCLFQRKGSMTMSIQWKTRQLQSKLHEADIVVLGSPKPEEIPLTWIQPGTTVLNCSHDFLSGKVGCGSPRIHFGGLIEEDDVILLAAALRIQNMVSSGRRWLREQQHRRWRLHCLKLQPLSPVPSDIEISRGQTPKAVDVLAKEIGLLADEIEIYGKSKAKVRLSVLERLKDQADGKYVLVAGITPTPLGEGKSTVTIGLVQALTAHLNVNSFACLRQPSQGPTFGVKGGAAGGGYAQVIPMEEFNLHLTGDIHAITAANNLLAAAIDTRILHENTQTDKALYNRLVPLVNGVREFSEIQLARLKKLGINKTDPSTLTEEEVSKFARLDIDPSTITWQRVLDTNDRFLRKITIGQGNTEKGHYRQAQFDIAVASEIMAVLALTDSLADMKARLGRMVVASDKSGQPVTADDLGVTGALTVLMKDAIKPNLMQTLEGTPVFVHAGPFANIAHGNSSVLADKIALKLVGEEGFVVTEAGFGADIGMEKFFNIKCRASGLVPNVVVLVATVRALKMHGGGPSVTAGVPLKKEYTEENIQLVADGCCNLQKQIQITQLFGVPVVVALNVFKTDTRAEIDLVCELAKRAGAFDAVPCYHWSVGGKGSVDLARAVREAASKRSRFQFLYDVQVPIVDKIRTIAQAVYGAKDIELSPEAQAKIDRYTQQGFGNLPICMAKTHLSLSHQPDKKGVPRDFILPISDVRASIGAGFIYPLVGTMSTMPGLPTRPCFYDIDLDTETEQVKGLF
UniProt P00519, sequence (whole entry, unmodified, looked up): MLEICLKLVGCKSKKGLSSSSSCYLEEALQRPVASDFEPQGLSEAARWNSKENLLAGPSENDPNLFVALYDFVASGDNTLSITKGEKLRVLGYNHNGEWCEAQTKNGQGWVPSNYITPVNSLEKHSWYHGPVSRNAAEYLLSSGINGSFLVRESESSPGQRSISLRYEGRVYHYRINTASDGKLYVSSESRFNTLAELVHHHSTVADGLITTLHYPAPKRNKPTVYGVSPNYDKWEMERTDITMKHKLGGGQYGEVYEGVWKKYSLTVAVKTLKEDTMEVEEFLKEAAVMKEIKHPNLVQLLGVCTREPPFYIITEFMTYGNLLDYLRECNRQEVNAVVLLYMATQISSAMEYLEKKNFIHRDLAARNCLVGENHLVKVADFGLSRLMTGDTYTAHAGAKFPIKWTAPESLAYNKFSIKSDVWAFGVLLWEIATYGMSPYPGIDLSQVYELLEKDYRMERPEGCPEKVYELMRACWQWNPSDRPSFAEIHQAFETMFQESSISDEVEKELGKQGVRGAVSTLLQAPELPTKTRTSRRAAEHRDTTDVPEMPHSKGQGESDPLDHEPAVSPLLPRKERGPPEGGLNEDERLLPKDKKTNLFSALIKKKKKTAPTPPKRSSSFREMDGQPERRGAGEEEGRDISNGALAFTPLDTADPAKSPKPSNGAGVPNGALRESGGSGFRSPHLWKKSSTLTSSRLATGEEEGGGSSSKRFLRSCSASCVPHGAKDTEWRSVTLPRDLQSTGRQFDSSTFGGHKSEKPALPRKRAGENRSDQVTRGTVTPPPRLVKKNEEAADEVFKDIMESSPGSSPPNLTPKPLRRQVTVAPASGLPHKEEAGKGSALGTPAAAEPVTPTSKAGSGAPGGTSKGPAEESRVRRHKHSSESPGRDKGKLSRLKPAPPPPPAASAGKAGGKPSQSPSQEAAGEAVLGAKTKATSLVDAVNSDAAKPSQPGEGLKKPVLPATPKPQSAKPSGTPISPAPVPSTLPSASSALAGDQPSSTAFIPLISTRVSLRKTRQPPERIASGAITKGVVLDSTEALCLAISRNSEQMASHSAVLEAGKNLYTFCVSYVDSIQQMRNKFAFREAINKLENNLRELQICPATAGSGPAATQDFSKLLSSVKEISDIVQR

`CC(=O)N1[C@H](C(=O)N[C@@H](CC(C)C)C(=O)N[C@@H](C)C(=O)N[C@@H](CC(=O)O)C(=O)COC(=O)c2c(C)cccc2C)C[C@@H]2CCCC[C@@H]21` has a kinact/KI of 1800 M⁻¹ s⁻¹ (CASP7; enzyme activity, inhibitor).
For `C/C1=C\CC/C(C)=C/CC(C)(C)/C=C/C1`, “inhibition time constant” read 400 ms (TRPV4 (Homo sapiens, UniProt Q9HBA0); inhibitor, outside-out patch clamp; 100 µM, pulses to +120 mV, together with: GSK1016790A 1 µM).
Under “isoTOP-ABPP competition ratio”, `CCCCCC=CC=C1C(=O)C=CC1CC=CCCCC(=O)O` (centres unmarked) is recorded as 2.7 (MTHFD1L (Homo sapiens, UniProt Q6UB35); competitive isoTOP-ABPP; proteome, soluble, MDA-MB-231; 100 µM, together with: iodoacetamide probe; reference: DMSO over compound-treated, higher = stronger cysteine blockade).
With `Cc1cn([C@H]2C[C@H](n3cc([C@]4(O)CC[C@H]5[C@@H]6CCc7cc(O)ccc7[C@H]6CC[C@@]54C)nn3)[C@@H](CO)O2)c(=O)[nH]c1=O` the ΔTm was 3.41 °C (MDM2 (Homo sapiens, UniProt Q00987); thermal stability, DSF; 30 µM).
For `COC(=O)Cc1cc2c(cc1C(=O)c1ccc(Cl)cc1Cl)OCO2`, the current amplitude was 478 ± 36 pA (Gria2 (Rattus norvegicus, UniProt P19491); glutamate-evoked current, whole-cell patch clamp; HEK-293T; concentration not given, pH 7.4, holding potential -60 mV, together with: 10 mM glutamate).
For `Cc1onc(-c2ccc(F)cc2)c1C(=O)Nc1cccc(C(N)=O)c1`, the inhibition was 20 ± 11% (Genome polyprotein, NS2B-NS3 protease (dengue virus type 2, UniProt P29990); reporter gene; HeLa; 12.5 µM).
The kinact/KI of `CC(=O)N[C@@H](CC(C)C)C(=O)N[C@@H](CCC(=O)O)C(=O)N[C@@H](COCc1ccccc1)C(=O)N[C@@H](CC(=O)O)C(=O)COC(=O)c1c(C)cccc1C` is reported as 34600 M⁻¹ s⁻¹ (CASP7; enzyme activity, inhibitor).
The iBAQ abundance of `N#CN1CC[C@H](C(=O)Nc2nc3c(s2)CN(C(=O)Cn2cc(CNC(=O)CCCC[C@@H]4SC[C@@H]5NC(=O)N[C@@H]54)nn2)CC3)C1` is reported as 1.73e+08 (TUBB (Homo sapiens, UniProt P07437); probe binding, affinity probe, neutravidin pull-down LC-MS/MS; HEK293T, cell lysate; 5 µM, 1 h, mean of three replicates, unit not given; higher = more pulled down).
For `Cc1cnc2nc1Nc1cccc(c1)COC/C=C/COCc1cc(ccc1OCCN1CCOCC1)N2`, the remaining binding was 53% (ABL1 (Homo sapiens, UniProt P00519, E255K); binding; 0.1 µM).
`CC1CCN(c2ccc(-c3n[nH]c(=O)c4cccnc34)cc2)CC1`: “number of kinases hit” 1 (human kinase panel; binding, KINOMEscan; 10000 nM, %Ctrl below 10).
The Emax of `CC[C@H](C)[C@H](NC(=O)[C@@H]1CCCN1C(=O)[C@@H](NC(=O)[C@@H](N)Cc1ccccc1)C(C)C)C(=O)N[C@@H](Cc1ccccc1)C(=O)N[C@H](C(=O)N[C@@H](Cc1ccc(O)cc1)C(=O)NCC(=O)N[C@@H](CCC(=O)O)C(=O)N[C@@H](CC(C)C)C(=O)N[C@@H](CCC(N)=O)C(=O)N[C@@H](CCCNC(=N)N)C(=O)N[C@@H](CCSC)C(=O)N[C@@H](CCC(N)=O)C(=O)N[C@@H](CCC(=O)O)C(=O)N[C@@H](CCCCN)C(=O)N[C@@H](CCC(=O)O)C(=O)N[C@@H](CCCNC(=N)N)C(=O)N[C@@H](CC(N)=O)C(=O)N[C@@H](CCCCN)C(=O)NCC(=O)N[C@@H](CCC(N)=O)C(=O)O)[C@@H](C)O` is reported as 55 ± 7.7% (Motilin receptor (MLNR, Homo sapiens, UniProt O43193, F33A); IP1 accumulation, agonist, IP-One HTRF; AD293 cells; 1 h, 37 °C).
With `O=C1c2sc(-c3ccc(N4CCC(F)C4)nc3F)nc2CCN1c1cccnc1` (centres unmarked) the specific binding was 1.59 nM and 2.01 nM (TAR DNA-binding protein 43, aggregated (TARDBP, Homo sapiens, UniProt Q13148); radioligand binding; human, FTLD-TDP type B sarkosyl-insoluble extract; 37.19 nM).
`O=C(NO)c1ccc(Cn2c3c(c4cc(Br)ccc42)SC(c2ccccc2)C3)s1` (racemic) gave an interatomic distance of 3.95 Å (Histone deacetylase 8 (Schistosoma mansoni, UniProt A5H660); X-ray crystallography; ligand-Lys20 side chain, chain B, BR1-CD).
`O=C(N1CCCC1)n1cc(-c2ccc(-c3ccccc3)cc2)nn1` gave an activity ratio of 1.26 (Cytosolic acyl coenzyme A thioester hydrolase (Acot7, Mus musculus, UniProt Q91V12); enzyme activity, inhibitor, competitive ABPP-SILAC, refers to: Acot7; mouse T-cells; concentration not given, 4 h, treated in situ; reference: DMSO).

Excerpt of the above:
The Emax of `CC[C@H](C)[C@H](NC(=O)[C@@H]1CCCN1C(=O)[C@@H](NC(=O)[C@@H](N)Cc1ccccc1)C(C)C)C(=O)N[C@@H](Cc1ccccc1)C(=O)N[C@H](C(=O)N[C@@H](Cc1ccc(O)cc1)C(=O)NCC(=O)N[C@@H](CCC(=O)O)C(=O)N[C@@H](CC(C)C)C(=O)N[C@@H](CCC(N)=O)C(=O)N[C@@H](CCCNC(=N)N)C(=O)N[C@@H](CCSC)C(=O)N[C@@H](CCC(N)=O)C(=O)N[C@@H](CCC(=O)O)C(=O)N[C@@H](CCCCN)C(=O)N[C@@H](CCC(=O)O)C(=O)N[C@@H](CCCNC(=N)N)C(=O)N[C@@H](CC(N)=O)C(=O)N[C@@H](CCCCN)C(=O)NCC(=O)N[C@@H](CCC(N)=O)C(=O)O)[C@@H](C)O` is reported as 55 ± 7.7% (Motilin receptor (MLNR, Homo sapiens, UniProt O43193, F33A); IP1 accumulation, agonist, IP-One HTRF; AD293 cells; 1 h, 37 °C).
